Published values pooled from the literature.
A part holds a random share of what one study measured. Values joined by “and” are separate records of one study, mostly repeats; a detail may differ. Changes are numbered by the printed parent chain.

Sample 1
Target: ATF2, bZIP domain (human)
Technique: DHFR protein complementation
Matrix: yeast
Notes: single substitutions, most at no-binding floor
Reference: wild-type JUN-FOS pair
Reading: higher = stronger binding
Starting sequence: JUN, bZIP domain (human); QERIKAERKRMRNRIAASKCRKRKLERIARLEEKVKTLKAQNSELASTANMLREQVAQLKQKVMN; partner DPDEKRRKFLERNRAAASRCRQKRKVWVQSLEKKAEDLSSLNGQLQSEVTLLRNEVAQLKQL
| Change | binding fitness |
| --- | --- |
| L31Y | -1.42 natural log |
| L31E | -1.57 natural log |
| M51D | -1.41 natural log |
| L31T | -1.48 natural log |
| A46L | -1.32 natural log |
| S43E | -1.36 natural log |
| L52T | -1.44 natural log |
| I28R | -1.34 natural log |

Sample 2
Target: RNA binding protein fox-1 homolog 2, RRM domain, GST-SBP tag (RBFOX2, Homo sapiens, UniProt O43251-10, residues 100-194)
Technique: RNA Bind-n-Seq
Molecule type: RNA
Matrix: in vitro
Concentration: 365 nM
Notes: natural RNA segment, single round, ends assumed
Reference: no-protein control
Reading: higher = stronger binding
Residues (chain): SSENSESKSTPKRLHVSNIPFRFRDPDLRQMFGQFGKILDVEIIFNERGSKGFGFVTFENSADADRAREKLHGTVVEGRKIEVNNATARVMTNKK
| Oligonucleotide | RBNS enrichment (R) |
| --- | --- |
| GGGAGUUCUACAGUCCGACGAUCACCAGUGGCCAGAUUUGGCAUCACCCGCCCCUCUUAGCAUCCACAGGAACUGCAUGCCUGCCUCUACCUUUCCCCACCUGAUACACACAGCUCCUGCUGUGACUGAGGGAUGGAAUUCUCGGGUGCCAA | 6.16 |
| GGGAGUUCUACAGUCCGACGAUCGGAAACGGACCAAUGUCUGGGUGUGGGAGGUGCUGAACCUUUUCUGGCCAUGAACCAUUAUAAAAUCCCAACAUAUAUACUGAAAAUACUGAAACUGCUUUGAAAAUUUGUGGAAUUCUCGGGUGCCAA | 0.732 |
| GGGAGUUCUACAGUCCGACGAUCUGCUAUUGGGUUCAGAUGUGUCUAGGGGAACAAAGAAAAAUUCAUUAACAAACAUUAGCUGCUCCACCUAUGUAGAGUAUAUCAUGUGAGGUUGUUGCUUUGAAUAUCAAUGGAAUUCUCGGGUGCCAA | 0.496 |
| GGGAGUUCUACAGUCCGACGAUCAAACCCCACCUUUAUUCCUUCAUUUCAUCUACCAUUUUCUGGUUCUUGUGUUGGCUGUGGCAGGCCAGCUGUGGUUUUCUUUUGCCAUGACAACUUCUAAUUGCCAUGUAUGGAAUUCUCGGGUGCCAA | 0.574 |
| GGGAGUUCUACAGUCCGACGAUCAGGGGAUGUUGUUCUGAGUUGAGUCUAGUUUUUCUUUUGCACCAGGAAAUAAAACAGUUUUUGUUUGUUUCAGCUGGCCUCCUAUUUUGGACCCCCUGGGAAAGACAUGCUGGAAUUCUCGGGUGCCAA | 1.03 |
| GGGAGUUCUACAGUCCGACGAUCGUUUAUUUUGUUUGGGUAAUUUGGUUCAUUAAGUACAUAGCUAAGGUAAUGAACAUCUUUUUCAGUAAUUGUAAAGUGAUUUAUUCAGAAUAAAUUUUUUGUGCUUAUGAUGGAAUUCUCGGGUGCCAA | 0.621 |
| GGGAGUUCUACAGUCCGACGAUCCAGCUGACUGCUGGUCCGGCUUCUGACCGGCCUUUGUCCUGGCUCCGUAGCAGAACACUGUAAAAGUGCCCGCGUCUUUGCAGUAGUUGCAGAUUUCAGUCGUCGUGUUAUGGAAUUCUCGGGUGCCAA | 0.349 |
| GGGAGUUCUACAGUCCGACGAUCGCUUAGAACACUAGCUUCCUGUUACGCUUCAUCUAAAAUGCAAAUUCUUACACCCAGCUUACGAGAUCUGGCUCAUACCUUCCCUUUGGAUCUCAUUAAAUGGUGAUUUCUGGAAUUCUCGGGUGCCAA | 1.84 |

Sample 3
Target: CCND2, cyclin fold, Cln2 fusion (human)
Technique: yeast growth competition, sequencing
Matrix: yeast
Notes: weak parent motif
Reference: not given
Reading: higher = stronger binding
Starting sequence: CDC6 docking peptide (human); TLKGRRLVFDNQL; partner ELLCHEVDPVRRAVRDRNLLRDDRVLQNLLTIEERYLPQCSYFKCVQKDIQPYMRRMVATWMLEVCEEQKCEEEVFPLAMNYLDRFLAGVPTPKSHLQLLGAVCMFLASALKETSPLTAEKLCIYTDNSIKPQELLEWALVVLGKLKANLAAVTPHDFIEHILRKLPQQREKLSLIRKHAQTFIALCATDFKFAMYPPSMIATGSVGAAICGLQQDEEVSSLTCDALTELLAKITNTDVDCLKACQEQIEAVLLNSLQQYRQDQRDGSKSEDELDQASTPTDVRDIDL
| Change | normalised enrichment score |
| --- | --- |
| G4V | 0.385 |
| K3D | -0.162 |
| F9G | -0.0273 |
| R5C | 0.0954 |
| D10N | 0.731 |
| K3S | 0.253 |
| F9Y | -0.175 |
| R6N | 0.0452 |

Further values, each from its own experiment
| Structure (SMILES) | cell line | setting | how to read | quantity | result |
| --- | --- | --- | --- | --- | --- |
| COc1ccc2c(c1)O[C@H](c1ccc(OC)c(OC)c1)C[C@@H]2NC(=O)C1(c2ccc3c(c2)OC(F)(F)O3)CC1 (single isomer, unassigned) | sample I colorectal tumour organoid | 1 µM | reference: DMSO | viability | 110% and 113% |

Repeated from above (sample 3):
| Change | normalised enrichment score |
| --- | --- |
| K3D | -0.162 |
| F9G | -0.0273 |
| R5C | 0.0954 |
| D10N | 0.731 |
